Assay results from different studies.
Each line is one published result; not all experiments were run side by side. Numbers after ± are the reported error.
B1: erenumab; V domains shown; sequence looked up; VH QVQLVESGGGVVQPGRSLRLSCAASGFTFSSFGMHWVRQAPGKGLEWVAVISFDGSIKYSVDSVKGRFTISRDNSKNTLFLQMNSLRAEDTAVYYCARDRLNYYDSSGYYHYKYYGMAVWGQGTTVTVSS; VL QSVLTQPPSVSAAPGQKVTISCSGSSSNIGNNYVSWYQQLPGTAPKLLIYDNNKRPSGIPDRFSGSKSGTSTTLGITGLQTGDEADYYCGTWDSRLSAVVFGGGTKLTVL
B2: rsd G14E/Y34F (Escherichia coli, UniProt P0AFX4); chain MLNQLDNLTERVRESNKLVDRWLHVRKHLLVAYFNLVGIKPGKESYMRLNEKALDDFCQSLVDYLSAGHFSIYERILHKLEGNGQLARAAKIWPQLEANTQQIMDYYDSSLETAIDHDNYLEFQQVLSDIGEALEARFVLEDKLILLVLDAARVKHPA
B3: CCS1 1-74 C27S (Saccharomyces cerevisiae, UniProt P40202); sequence looked up; chain MTTNDTYEATYAIPMHCENCVNDIKASLKNVPGINSLNFDIEQQIMSVESSVAPSTIINTLRNCGKDAIIRGAG
B4: IL1RL1 19-328 (Homo sapiens, UniProt Q01638); sequence looked up; chain KFSKQSWGLENEALIVRCPRQGKPSYTVDWYYSQTNKSIPTQERNRVFASGQLLKFLPAAVADSGIYTCIVRSPTFNRTGYANVTIYKKQSDCNVPDYLMYSTVSGSEKNSKIYCPTIDLYNWTAPLEWFKNCQALQGSRYRAHKSFLVIDNVMTEDAGDYTCKFIHNENGANYSVTATRSFTVKDEQGFSLFPVIGAPAQNEIKEVEIGKNANLTCSACFGKGTQFLAAVLWQLNGTKITDFGEPRIQQEEGQNQSFSNGLACLDMVLRIADVKEEDLLLQYDCLALNLHGLRRHTVRLSRKNPIDHHS
B5: GORASP1 PDZ domain (Homo sapiens); chain EGFHLHGVQENSPAQQAGLEPYFDFIITIGHSRLNKENDTLKALLKANVEKPVKLEVFNMKTMRVREVEVVPSNMWGGQGLLGASVRFCSF
Chain of UniProt P36046 (whole entry, looked up): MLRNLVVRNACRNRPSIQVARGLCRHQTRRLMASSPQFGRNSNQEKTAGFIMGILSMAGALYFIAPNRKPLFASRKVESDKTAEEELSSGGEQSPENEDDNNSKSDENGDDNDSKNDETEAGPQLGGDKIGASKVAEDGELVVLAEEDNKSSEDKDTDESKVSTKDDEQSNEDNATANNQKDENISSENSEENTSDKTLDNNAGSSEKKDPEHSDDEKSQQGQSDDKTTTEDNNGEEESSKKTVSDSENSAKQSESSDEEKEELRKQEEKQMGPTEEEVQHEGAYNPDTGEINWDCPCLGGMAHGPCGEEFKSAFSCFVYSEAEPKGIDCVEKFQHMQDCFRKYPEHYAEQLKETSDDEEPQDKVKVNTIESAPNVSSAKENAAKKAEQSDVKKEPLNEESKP
Chain of UniProt P00579 (whole entry, looked up): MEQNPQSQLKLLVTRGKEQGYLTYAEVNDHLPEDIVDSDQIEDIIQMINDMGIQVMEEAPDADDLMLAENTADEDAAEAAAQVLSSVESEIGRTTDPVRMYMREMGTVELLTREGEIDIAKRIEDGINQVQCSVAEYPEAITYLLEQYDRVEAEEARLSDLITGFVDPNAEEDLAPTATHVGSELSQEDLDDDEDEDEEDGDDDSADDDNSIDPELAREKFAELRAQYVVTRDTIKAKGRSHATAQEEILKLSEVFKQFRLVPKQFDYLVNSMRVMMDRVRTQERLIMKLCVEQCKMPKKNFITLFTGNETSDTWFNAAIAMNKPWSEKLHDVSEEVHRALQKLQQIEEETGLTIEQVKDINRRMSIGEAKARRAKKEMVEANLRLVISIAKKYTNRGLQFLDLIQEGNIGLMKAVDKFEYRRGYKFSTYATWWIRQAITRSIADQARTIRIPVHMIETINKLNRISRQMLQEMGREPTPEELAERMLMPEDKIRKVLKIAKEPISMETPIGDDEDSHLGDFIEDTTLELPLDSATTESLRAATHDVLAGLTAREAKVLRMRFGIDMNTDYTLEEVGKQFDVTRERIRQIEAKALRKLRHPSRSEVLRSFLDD
Chain of UniProt P42804 (whole entry, looked up): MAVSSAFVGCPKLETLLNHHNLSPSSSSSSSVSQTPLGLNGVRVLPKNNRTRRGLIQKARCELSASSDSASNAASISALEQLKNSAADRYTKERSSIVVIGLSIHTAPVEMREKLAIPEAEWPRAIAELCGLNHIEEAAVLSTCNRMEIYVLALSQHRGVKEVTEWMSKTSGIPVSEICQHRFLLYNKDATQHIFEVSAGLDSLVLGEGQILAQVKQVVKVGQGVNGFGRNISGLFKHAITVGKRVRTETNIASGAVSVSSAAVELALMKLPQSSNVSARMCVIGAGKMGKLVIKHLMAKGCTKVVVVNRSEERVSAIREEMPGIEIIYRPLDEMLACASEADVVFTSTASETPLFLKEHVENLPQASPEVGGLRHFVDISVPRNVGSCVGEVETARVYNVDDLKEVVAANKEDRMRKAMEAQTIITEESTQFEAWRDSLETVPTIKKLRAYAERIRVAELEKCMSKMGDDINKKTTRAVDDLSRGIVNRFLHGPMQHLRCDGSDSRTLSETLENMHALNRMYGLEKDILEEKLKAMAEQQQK
Chain of UniProt P00415 (whole entry, looked up): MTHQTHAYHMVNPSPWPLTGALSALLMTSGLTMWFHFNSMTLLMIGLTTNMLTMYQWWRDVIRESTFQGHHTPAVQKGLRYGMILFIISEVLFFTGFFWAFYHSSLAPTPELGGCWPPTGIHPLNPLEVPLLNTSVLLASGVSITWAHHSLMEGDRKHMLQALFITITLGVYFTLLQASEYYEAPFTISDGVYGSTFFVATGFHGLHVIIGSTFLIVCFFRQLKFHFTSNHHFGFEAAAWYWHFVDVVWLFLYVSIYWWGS
Chain of UniProt P06730 (whole entry, looked up): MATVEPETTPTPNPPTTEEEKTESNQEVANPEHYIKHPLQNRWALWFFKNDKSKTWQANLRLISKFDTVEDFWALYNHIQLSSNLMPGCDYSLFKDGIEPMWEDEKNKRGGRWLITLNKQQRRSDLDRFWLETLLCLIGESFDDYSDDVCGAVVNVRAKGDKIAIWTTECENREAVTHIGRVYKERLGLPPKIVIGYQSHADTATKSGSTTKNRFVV
Chain of UniProt O95760 (whole entry, looked up): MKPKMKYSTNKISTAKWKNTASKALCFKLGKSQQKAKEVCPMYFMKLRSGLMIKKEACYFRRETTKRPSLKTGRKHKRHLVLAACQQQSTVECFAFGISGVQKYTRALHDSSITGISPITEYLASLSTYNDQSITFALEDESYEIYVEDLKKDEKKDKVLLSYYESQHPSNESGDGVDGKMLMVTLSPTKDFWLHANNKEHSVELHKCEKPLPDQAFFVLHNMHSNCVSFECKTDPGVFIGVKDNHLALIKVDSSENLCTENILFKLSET

MT-CO3 (Bos taurus, UniProt P00415)  urea midpoint for subunit dissociation (cytochrome c oxidase eight-subunit core (Bos taurus, UniProt P00396); anion exchange chromatography, RP-HPLC, SDS-PAGE; 120 min, pH 7.2, room temperature, apparent, partly coupled to unfolding): 3.9 M
sodium channel protein (Rattus norvegicus)  half-life (H2-D1/B2m (Mus musculus); flow cytometry; RMA-S): < 1 h
B1 (erenumab)  pKB (CALCR/RAMP1 on cells (Homo sapiens); cAMP production, antagonist, Schild analysis; antibody, Cos7; together with: amylin): 6.64
IGF2 (Homo sapiens, UniProt P01344)  branching points per neuron (IGF1R (Gallus gallus); process branching; embryonic spinal motoneurons; 0.1-10 nM; baseline: no hormone, higher = more branching): 1.45
B2 (rsd G14E/Y34F)  remaining transcription (rpoD (Escherichia coli, UniProt P00579); single-round in vitro transcription, inhibitor; baseline: absence of Rsd, higher = less inhibition): 4%
STEP61 (Rattus norvegicus)  phosphatase activity (itself; pNPP dephosphorylation; hippocampus, aged rats; baseline: young rats, higher = more activity): 40.7%
RBM38 Pep8 S6K  p53 protein level (EIF4E (Homo sapiens, UniProt P06730); immunoblot; RKO; 2.5 µM, 18 h; baseline: untreated, higher = more p53): 2.3 fold
B3 (CCS1 1-74 C27S)  binding (MIA40 284-403, oxidized (UniProt P36046); pull-down; 10 min, pH 7.0, 25 °C, NaCl 200 mM, nonreducing): binds
ribosomes whole ribosome (Rattus norvegicus)  association response (CRIP3 precursor 22-286 (Zea mays, UniProt P28522); SPR; 60 nM): 40 RU
Tigit fragment (Mus musculus)  koff (Pvr/IgG1 Fc Fc fusion, extracellular domain (Mus musculus); SPR; avidity, bivalent analyte model): 0.00602 s⁻¹
cpSRP43 substrate-binding domain (Arabidopsis thaliana)  chaperone activity (HEMA1 mature (Arabidopsis thaliana, UniProt P42804); heat-induced aggregation, light scattering; baseline: cpSRP43-FL, higher = weaker chaperone activity): > 20 fold lower
B4 (IL1RL1 19-328)  IC50 (IL33 95-270 (Homo sapiens, UniProt O95760); NFκB luciferase reporter, inhibitor; GEC-NFκB-Luc; together with: IL-33 2.5 ng/mL): 0.426 nM
B5 (GORASP1 PDZ domain)  binding intensity (RPS6KA1 fragment, pS732 (Homo sapiens); holdup assay; E. coli lysate; higher = more PDZ depleted): 0.23 ± 0.03

For quick reference, copied from above:
MT-CO3 (Bos taurus, UniProt P00415)  urea midpoint for subunit dissociation (cytochrome c oxidase eight-subunit core (Bos taurus, UniProt P00396); anion exchange chromatography, RP-HPLC, SDS-PAGE; 120 min, pH 7.2, room temperature, apparent, partly coupled to unfolding): 3.9 M
